Measured values gathered from unrelated publications.
Compare with care: the assays were run in different laboratories. ± marks the error that the study gave.

Structure (SMILES)	test	system	setting	scale	quantity	result
Cc1ccc(/C=C/C(=O)O)cc1-c1cc2c(cc1C)C(C)(C)CCC2(C)C	RNA sequencing, measured: Angptl4 mRNA	rat, brain	dose not given, 24 h, single dose	baseline: vehicle	log2 fold change	-0.31
N=C(N)NCCC[C@H](NC(=O)[C@@H]1CCCN1C(=O)[C@@H]1CSSC[C@H](N)C(=O)N[C@@H](Cc2ccc(O)cc2)C(=O)N[C@@H](Cc2ccccc2)C(=O)N[C@@H](CCC(N)=O)C(=O)N[C@@H](CC(N)=O)C(=O)N1)C(=O)NCC(N)=O	–	male Sprague-Dawley rat, conscious	intra-arterial, 100 ng/kg	baseline: pre-injection baseline	peak mean arterial pressure change	~35 mmHg
CSCC[C@H](NC(=O)CNC(=O)[C@H](CC(=O)O)NC(=O)[C@@H](NC(=O)[C@@H](NC(=O)[C@@H](NC(=O)CNC(=O)[C@H](CCC(N)=O)NC(=O)[C@H](CCSC)NC(=O)[C@H](CC(=O)O)NC(=O)[C@H](C)NC(=O)[C@H](C)NC(=O)[C@@H](NC(=O)[C@H](CO)NC(=O)[C@@H](N)CC(C)C)[C@@H](C)O)C(C)C)C(C)C)[C@@H](C)O)C(=O)N[C@@H](C)C(=O)N[C@@H](CO)C(=O)NCC(=O)N[C@@H](CC(C)C)C(=O)N[C@@H](CC(=O)O)C(=O)N[C@@H](CCCCN)C(=O)N[C@@H](CC(=O)O)C(=O)N[C@@H](Cc1ccc(O)cc1)C(=O)N[C@@H](CC(C)C)C(=O)N[C@@H](CCCCN)C(=O)N1CCC[C@H]1C(=O)N[C@@H](CC(=O)O)C(=O)N[C@@H](CC(=O)O)C(=O)O	–	patients with progressive disease, p53-positive solid tumours	dose not given, deceased patients	–	survival	12 to 32 weeks
CC(C)C[C@@H]1NC(=O)[C@@H](Cc2c[nH]c3ccccc23)NC(=O)[C@H](CCCNC(=N)N)NC(=O)[C@@H](CCC(=O)O)NC(=O)[C@H](CCC(N)=O)NC(=O)[C@@H](CCC(=O)O)NC(=O)[C@H](CCCNC(=N)N)NC(=O)[C@@H](Cc2c[nH]c3ccccc23)NC1=O	flow cytometry	LDLr-/- mouse, western diet, small intestine lamina propria	dose not given	baseline: vehicle	Helios+ to Th17 ratio	increased
CCCCCCCCCCCCCCCC(=O)N[C@@H](CCC(=O)NCCOCCOCCC(=O)NCCOCCOCCC(=O)NCCCC[C@H](NC(=O)[C@H](CC(=O)O)NC(=O)[C@H](CC(C)C)NC(=O)[C@H](Cc1ccc(O)cc1)NC(=O)[C@H](CCCCN)NC(=O)[C@H](CO)NC(=O)[C@H](Cc1ccc(O)cc1)NC(=O)[C@H](CC(=O)O)NC(=O)[C@H](CO)NC(=O)[C@@H](NC(=O)[C@H](Cc1ccccc1)NC(=O)[C@@H](NC(=O)CNC(=O)[C@H](CCC(N)=O)NC(=O)[C@@H](CO)NC(=O)[C@@H](N)Cc1c[nH]cn1)[C@@H](C)O)[C@@H](C)O)C(=O)N[C@@H](CCCNC(=N)N)C(=O)N[C@@H](CCCNC(=N)N)C(=O)N[C@@H](C)C(=O)N[C@@H](CCC(N)=O)C(=O)N[C@@H](CC(=O)O)C(=O)N[C@@H](Cc1ccccc1)C(=O)N[C@H](C(=O)N[C@@H](CCC(N)=O)C(=O)N[C@@H](Cc1c[nH]c2ccccc12)C(=O)N[C@@H](CC(C)C)C(=O)N[C@@H](CC(C)C)C(=O)N[C@@H](CC(N)=O)C(=O)N[C@H](C(=O)NCC(=O)NCC(=O)N1CCC[C@H]1C(=O)N[C@@H](CO)C(=O)N[C@@H](CO)C(=O)NCC(=O)N[C@@H](C)C(=O)N1CCC[C@H]1C(=O)N1CCC[C@H]1C(=O)N1CCC[C@H]1C(=O)N[C@@H](CO)C(N)=O)[C@@H](C)O)C(C)C)C(=O)O	qPCR, measured: Pdgf, Timp1	Sprague-Dawley rat CCl4 model, liver	dose not given	–	mRNA level	decreased
CCCCCCCC/C=C\CCCCCCCCOP(O)(O)=S.N	–	C57BL/6 mouse	subcutaneous, 1 mg/kg single, day 30, dosed 24 h after irradiation, together with: 6.4 Gy total-body irradiation	–	survival increase	47%
CN(C)CCN(Cc1ccccc1)C(=O)c1cc(-c2ccc(F)cc2)n2nc(C(C)(C)C)cc2n1	–	Tg6799 mouse, cortex	dose not given, four months	–	fibrinogen infiltration	decreased
CC(C)C[C@@H]1NC(=O)[C@H](CCCNC(=N)N)NC(=O)[C@H](CCCCN)NC(=O)[C@H](CC(=O)O)NC(=O)[C@H](CCCCN)NC(=O)[C@@H](CO)NC1=O	–	mice, orthotopic Panc1_A8	intraperitoneal, 10 µg/g daily, 12 days	–	tumour weight	0.62 g
O=C(O)/C=C/c1cc(O)cc(O)c1	DPPH radical scavenging	–	250 µg/mL	–	inhibition	65.6 ± 1.84%
CCc1cnc(NC(=O)c2cc(S(=O)(=O)N3CCOCC3)ccc2N(C)C2CCCC2)s1	–	mouse, HCC827-GR xenograft	intraperitoneal, 10 mg/kg every other day, 8 doses	–	time to tumour volume 500 mm3	23.7 days
CC[C@H](C)[C@H](NC(=O)[C@H](Cc1c[nH]c2ccccc12)NC(=O)[C@H](CCCNC(=N)N)NC(=O)[C@H](CCCCN)NC(=O)[C@H](CC(C)C)NC(=O)[C@H](CC(=O)O)NC(=O)[C@H](Cc1ccccc1)NC(=O)[C@H](C)NC(=O)[C@H](Cc1ccc(O)cc1)NC(=O)[C@H](CC(N)=O)NC(=O)[C@H](Cc1ccc(O)cc1)NC(=O)[C@H](CCCNC(=N)N)NC(=O)[C@H](Cc1ccc(O)cc1)NC(=O)[C@H](Cc1ccc(O)cc1)NC(=O)[C@@H](NC(=O)[C@H](CC(C)C)NC(=O)[C@H](C)NC(=O)[C@H](CC(N)=O)NC(=O)[C@H](Cc1ccc(O)cc1)NC(C)=O)[C@@H](C)CC)C(=O)N[C@@H](Cc1ccc(O)cc1)C(=O)N[C@@H](CC(C)C)C(N)=O	measured: HA-51 tetramer	antigen-experienced tetramer+ CD4 T cells, healthy adults, HLA-DRB1*0101	dose not given	–	α4β7+ CCR9− cells	45.8%
CC(C)C[C@@H]1NC(=O)[C@H](C(C)C)NC(=O)[C@H](CO)NC(=O)CNC(=O)CNC(=O)[C@H](CCCNC(=N)N)NC(=O)[C@@H]2CCCN2C(=O)[C@@H](NC(=O)CC[C@H](NC(=O)c2ccc(N(C)Cc3cnc4nc(N)nc(N)c4n3)cc2)C(=O)O)C(C)(C)SSC[C@@H](C(=O)O)NC(=O)CNC(=O)[C@H]([C@@H](C)O)NC(=O)[C@H](C(C)C)NC1=O	–	rat adjuvant arthritis	iv, 0.2 mg/kg once daily day 0-14, day 14	–	paw weight	3.43 ± 0.121 g
CC[C@H](C)[C@H](NC(=O)[C@@H](NC(=O)[C@H](CC(=O)O)NC(C)=O)[C@@H](C)O)C(=O)N[C@@H](CCCNC(=N)N)C(=O)N[C@@H](CC(C)C)C(=O)N[C@@H](CC(C)C)C(=O)N[C@@H](Cc1ccccc1)C(=O)N[C@@H](CCC(N)=O)C(=O)N[C@@H](CC(C)C)C(=O)N[C@@H](CCSC)C(=O)N[C@@H](CCCNC(=N)N)C(=O)N1CCC[C@H]1C(=O)N1CCC[C@H]1C(=O)N[C@@H](CC(N)=O)C(=O)N[C@@H](CCSC)C(=O)N[C@H](C(=O)N1CCC[C@H]1C(=O)N[C@@H](C)C(=O)N[C@H](C(=O)N[C@@H](CC(N)=O)C(=O)N[C@@H](C)C(N)=O)C(C)C)[C@@H](C)O	measured: HA-02 tetramer	antigen-experienced tetramer+ CD4 T cells, healthy adults, HLA-DRB1*0101	dose not given	–	α4β7+ CCR9− cells	63.3%
CCOP(=O)(OCC)OCCCCOC(=O)CC1=C(C)C(=Cc2ccc([S+](C)[O-])cc2)c2ccc(F)cc21 (stereo not drawn)	measured: phospho-mTOR	nude mice, orthotopic A549 tumour, tumour	inhalation, dose not given	baseline: vehicle	decrease in phosphorylation	55%
COc1ccc(C2=Nn3c(N/N=C4/C(=O)Nc5ccc(OC(F)(F)F)cc54)nnc3SC2)cc1	angiogenesis	hen egg chorioallantoic membrane	40 µM	baseline: DMSO vehicle	number of blood vessels	decreased
CC[C@H](C)[C@H](NC(=O)[C@@H]1CCCN1C(=O)[C@@H]1CCCN1C(=O)[C@@H]1CCCN1C(=O)[C@H](C)NC(=O)[C@@H]1CCCN1C(=O)[C@H](CCCNC(=N)N)NC(=O)[C@H](CC(C)C)NC(=O)[C@H](CO)NC(=O)[C@@H]1CCCN1C(=O)[C@H](C)NC(=O)[C@H](CCC(=O)O)NC(=O)[C@H](CCC(=O)O)NC(=O)[C@H](CCCNC(=N)N)NC(=O)[C@H](CCCCN)NC(=O)[C@H](CCCCN)NC(=O)[C@H](CC(=O)O)NC(=O)[C@H](CC(C)C)NC(=O)[C@@H]1CCCN1C(=O)[C@H](CCCNC(=N)N)NC(=O)[C@H](Cc1c[nH]cn1)NC(=O)CN)C(=O)N[C@@H](CO)C(=O)NCC(=O)NCC(=O)NCC(=O)N[C@@H](Cc1ccc(O)cc1)C(=O)N[C@@H](CCCNC(=N)N)C(=O)O	neutrophil infiltration	C57BL/6J mice, wild-type, thioglycollate peritonitis, peritoneum	i.v., 80 µM, 4 h, together with: thioglycollate i.p.	baseline: vehicle	inhibition	~30%
N#Cc1cnc2cc(OCC3CCNCC3)c(F)cc2c1Nc1cc(F)c(OCc2cccc(Cl)n2)cc1Cl	–	C57BL/6J mice, diet-induced MASH, partial hepatectomy	dose not given, 72 h after hepatectomy	–	survival	56.2%
CC[C@H](C)[C@H](NC(=O)[C@H](CCCNC(=N)N)NC(=O)[C@H](CCC(N)=O)NC(=O)[C@H](CC(=O)O)NC(=O)[C@H](CC(C)C)NC(=O)[C@H](CC(C)C)NC(=O)[C@H](CC(N)=O)NC(=O)[C@H](Cc1ccccc1)NC(=O)[C@H](CC(=O)O)NC(=O)[C@@H](NC(=O)[C@@H](NC(=O)[C@H](CC(N)=O)NC(=O)CNC(=O)[C@H](CO)NC(C)=O)C(C)C)[C@@H](C)CC)C(=O)N[C@H](C(=O)N[C@@H](Cc1c[nH]c2ccccc12)C(=O)N[C@@H](CCC(N)=O)C(=O)N[C@@H](CC(N)=O)C(=O)N[C@@H](Cc1c[nH]c2ccccc12)C(=O)N[C@@H](Cc1ccc(O)cc1)C(=O)N[C@@H](C)C(N)=O)[C@@H](C)CC	measured: HA-19 tetramer	antigen-experienced tetramer+ CD4 T cells, healthy adults, HLA-DRB1*0101	dose not given	–	α4β7+ CCR9− cells	30.8%
C#CC[C@H](NC(=O)CNC(=O)[C@H](CO)NC(=O)[C@@H]1CCCCNC(=O)CCCC(=O)N[C@@H](CCSC)C(=O)N[C@@H](Cc2c[nH]c3ccccc23)C(=O)N2CCC[C@H]2C(=O)N[C@@H](Cc2c[nH]cn2)C(=O)N[C@@H](CCCNC(=N)N)C(=O)N[C@@H](C(C)C)C(=O)N[C@@H]([C@@H](C)O)C(=O)N[C@@H](C)C(=O)N(C)[C@@H](C)C(=O)N1)C(=O)O	–	athymic nude mouse, OVCAR-8 intraperitoneal	intraperitoneal, 10 mg/kg 3 times weekly, 3 weeks	baseline: untreated	total tumour mass	no effect
CC[C@H](C)[C@H](NC(=O)[C@H](Cc1c[nH]c2ccccc12)NC(=O)[C@H](CCCCN)NC(=O)[C@@H](NC(=O)[C@H](CC(C)C)NC(=O)[C@H](CCCCN)NC(=O)CNC(=O)[C@@H](NC(=O)[C@@H](NC(=O)[C@H](CO)NC(=O)[C@@H](NC(=O)[C@@H](NC(=O)[C@H](CCCCN)NC(=O)[C@H](CCC(N)=O)NC(=O)[C@H](C)NC(=O)[C@H](CCSC)NC=O)[C@@H](C)CC)[C@@H](C)CC)[C@@H](C)O)[C@@H](C)CC)C(C)C)C(=O)N[C@H](C(=O)N[C@@H](CCCCN)C(=O)N[C@H](C(=O)N[C@H](C(=O)N[C@@H](CC(N)=O)C(=O)N[C@@H](CCCCN)C(=O)N[C@@H](Cc1ccccc1)C(=O)N[C@H](C(=O)N[C@@H](CCCCN)C(=O)N[C@@H](CCCCN)C(=O)O)[C@@H](C)O)C(C)C)[C@@H](C)O)[C@@H](C)CC (racemic)	carboxyfluorescein release, stopped-flow fluorescence	POPC vesicles 50 µM	up to 1 µM, pH 7.5, peptide/lipid 1:50	–	time constant	4.9 s
CC[C@@]1(O)C(=O)OCc2c1cc1n(c2=O)Cc2cc3cc(OC(=O)CCCC(=O)NCC(=O)N[C@@H](Cc4ccccc4)C(=O)N[C@@H](Cc4ccccc4)C(=O)N[C@@H](Cc4ccc(OP(=O)(O)O)cc4)C(=O)NCCSSCCNC(=O)CCC(=O)N[C@@H](CCC(=O)O)C(=O)N[C@@H](CCCNC(=N)N)C(=O)NCC(=O)N[C@@H](CC(=O)O)C(=O)O)ccc3nc2-1	–	nude mice, HepG2 xenograft	intravenous, 3 mg/kg HCPT equivalent, day 9, three doses, initial 60 mm^3	–	tumour volume	~5 mm³
